# Measured values of several laboratories.
# Each line is one published result; not all experiments were run side by side. Numbers after ± are the reported error.
Compound,cell line,test,test system,setting,IC50 [µM]
COc1ccc2cc3[n+](cc2c1OCc1cn(Cc2ccc(F)cc2Br)nn1)CCc1cc2c(cc1-3)OCO2,SMMC-7721,"cell growth or viability, MTT",,,18.9
OC[C@H]1[C@@H](O)[C@@H](O)CN1Cc1ccc(Br)cc1,CEM-DNR daunorubicin resistant,MTS,,72 h,122 ± 22
Cc1ccc2nc(Cl)c(-c3nc4cc(F)ccc4[nH]3)cc2c1,BEL-7404,"cell growth or viability, MTT",,48 h,> 100
Cc1cc(C)c([N+]#[C][Pt-]([Cl])([Cl])=[C](Nc2ccc(CN[C](Nc3c(C(C)C)cccc3C(C)C)=[Au][Cl])cc2)Nc2c(C)cc(C)cc2C)c(C)c1,MRC5,cell growth or viability,,,> 100
Cc1ccc(CC(=O)N(CCCn2ccnc2)c2nc3ccccc3s2)c(C)c1,SW480 3D tumour organoids,cytotoxicity,0.4% DMSO,"72 h, 2% Matrigel",15.7
CCCCCCCC(=O)O[C@H]1[C@H](C)O[C@@H](O[C@H]2[C@H](N(C)C)[C@@H](O)[C@H](O[C@H]3[C@@H](CC=O)C[C@@H](C)[C@@H](O[C@H]4CC[C@H](N(C)C)[C@@H](C)O4)/C=C/C=C/C[C@@H](C)OC(=O)C[C@@H](O)[C@@H]3OC)O[C@@H]2C)C[C@@]1(C)O,GES1,"cell growth or viability, CCK-8",,72 h,12.1
CC(=O)OC[C@H]1O[C@@H](NC(=O)NC(=O)[C@@H](C)Cc2ccc(C(C)C)cc2)[C@H](OC(C)=O)[C@@H](OC(C)=O)[C@@H]1OC(C)=O,human T-lymphocyte,cell growth or viability,,72 h,32
CC/C(=C(\c1ccc(O)cc1)c1ccc(OCCN(C)CCOCCOCCOCCOCCOCCOCCOCCOCCOCCN(C)CCOc2ccc(/C(=C(/CC)c3ccccc3)c3ccc(O)cc3)cc2)cc1)c1ccccc1,MCF7 (ER-positive),cell growth,,96 h,2.1
N=C(N)NCCC[C@H](N)C(=O)NC(CC(=O)N[C@@H](Cc1ccccc1)C(=O)N[C@@H](CC(=O)O)C(=O)O)c1ccc2ccccc2c1 (some centres unmarked),BT-474,"cell growth or viability, ATP luminescence",,72 h,0.785
CC1=C2[O][Ru-]([Cl])[O+]=C2C=CN1CCCCCCN1C=CC2=[O+][Ru-]([Cl])[O]C2=C1C.Cc1ccc(C(C)C)cc1.Cc1ccc(C(C)C)cc1,5637-oxo oxoplatin-resistant,crystal violet,,96 h,> 20
CC(C)c1ccc(/C=C/C(=O)N[C@@H]2O[C@H](CO)[C@@H](O)[C@H](O)[C@H]2O)cc1,human T-lymphocyte,cell growth or viability,,72 h,> 250
Clc1nc2cc3c(cc2cc1-c1nc2ccccc2[nH]1)OCO3,L02,"cell growth or viability, MTT",,48 h,> 100
COC(=O)[C@H]1CC[C@H](NC(=O)C[C@H]2Oc3ccccc3C(=O)[C@]2(C)[N+](=O)[O-])CC1,human Fibroblast,"cell growth or viability, SRB",,96 h,> 100
N#Cc1cccc(-c2ccc(=O)n(Cc3cccc(-c4ncc(OCC5CCN(CCCCCCCC(=O)Nc6cccc7c6C(=O)N(C6CCC(=O)NC6=O)C7=O)CC5)cn4)c3)n2)c1 (centres unmarked),EBC-1,"cell growth or viability, CCK-8",,72 h,0.0195
COc1ccc2nc(Cl)c(-c3nc4cc(Cl)ccc4[nH]3)cc2c1,L02,"cell growth or viability, MTT",,48 h,> 100
O=C(/C=C/c1ccc(O)c(O)c1)OCCCC[P+](c1ccccc1)(c1ccccc1)c1ccccc1,L02,"cell growth or viability, SRB",,48 h,66.8
CC[C@H](C)[C@H](NC(=O)[C@H](Cc1ccc(O)cc1)NC(=O)[C@H](CC(=O)O)NC(=O)[C@H](CCCCN)NC(=O)CNC(=O)[C@H](CC(=O)O)NC(=O)[C@H](CCC(N)=O)NC(=O)[C@@H](N)CCC(N)=O)C(=O)N[C@H](C(=O)N[C@@H](CC(C)C)C(=O)N1CCC[C@H]1C(=O)N[C@H](C(=O)N[C@@H](CO)C(=O)N[C@@H](CCC(=O)O)C(=O)N[C@H](C(=O)N[C@@H](CCCCNC(=O)CNC(=O)[C@H](CCCCN)NC(=O)[C@H](CCCNC(=N)N)NC(=O)[C@H](Cc1ccccc1)NC(=O)[C@H](CCCNC(=N)N)NC(=O)[C@H](CCCNC(=N)N)NC(=O)[C@H](CCCNC(=N)N)NC(=O)[C@H](CO)NC(=O)[C@H](Cc1ccc(O)cc1)NC(=O)[C@H](CO)NC(=O)[C@H](CC(C)C)NC(=O)[C@H](CCCNC(=N)N)NC(=O)[C@@H](N)CCCNC(=N)N)C(N)=O)[C@@H](C)O)[C@@H](C)CC)C(C)C,HPAEC,"ERK1/2 phosphorylation, inhibitor, Western blot",,"0.5 h pre-incubation, serum-free medium, together with: 1 ng/mL VEGF",25.2
C=C[CH2][Pd-]([Cl])[Cl].CC(C)c1cccc(C(C)C)c1-n1c[n+](-c2c(C(C)C)cccc2C(C)C)c2c1-c1cccc3cccc-2c13,NTERA2,"cell growth or viability, MTT",,72 h,0.4
C#CCOC(=O)C(CC)C1CCC(C)C(C(C)C(O)C(C)C(=O)C(CC)C2OC3(C=CC(O)C4(CCC(C)(C5CCC(O)(CC)C(C)O5)O4)O3)C(C)CC2C)O1 (centres unmarked),ALL5,"cell growth or viability, MTT",,5 days,5.7
CC/C(=C(\c1ccc(O)cc1)c1ccc(OCCN(C)CCOCCN(C)CCOc2ccc(/C(=C(/CC)c3ccccc3)c3ccc(O)cc3)cc2)cc1)c1ccccc1,MCF7 (ER-positive),cell growth,,96 h,0.11
N#Cc1cccc(-c2ccc(=O)n(Cc3cccc(-c4ncc(OCC5CCN(CCCCCCCCCC(=O)Nc6cccc7c6C(=O)N(C6CCC(=O)NC6=O)C7=O)CC5)cn4)c3)n2)c1 (centres unmarked),EBC-1,"cell growth or viability, CCK-8",,72 h,0.0379
COc1c(O)cc2oc3cc4c(c(O)c3c(=O)c2c1CC=C(C)C)C=CC(C)(C)O4,SMMC-7721,cell growth or viability,,48 h,11.5
O=C(CCCCC1SCC2NC(=O)NC21)NCCCCC(CN1CCCC1CN1C(=O)C(=O)NCC1Cc1ccccc1)N1CC(Cc2ccc(O)cc2)N(CCc2ccccc2)C(=O)C1=O (centres unmarked),WM 266-4,"cell growth or viability, ATP luminescence",,72 h,> 100
CC(=O)[O][Pt]([Cl])([Cl])[O]C(C)=O.N.N,five cancer cell lines,cytotoxicity,,mean over panel,29.2
CC(C)c1ccc(C[C@H](C)C(=O)N[C@@H]2O[C@H](CO)[C@@H](O)[C@H](O)[C@H]2O)cc1,human T-lymphocyte,cell growth or viability,,72 h,> 250
Cc1cc(C)c(N[C](NCc2ccc(N[C](Nc3c(C(C)C)cccc3C(C)C)=[Pd-]([Cl])([Cl])[C]#[N+]c3c(C(C)C)cccc3C(C)C)cc2)=[Au][Cl])c(C)c1,MRC5,cell growth or viability,,,> 100
CC(=O)N[C@H](CCCNC(=N)N)C(=O)N[C@@H](CC(=O)N[C@H](Cc1ccccc1)C(=O)N[C@H](CC(=O)O)C(N)=O)c1ccc2ccccc2c1,BT-474,"cell growth or viability, ATP luminescence",,72 h,> 50
C[C@]12CC/C(=N\O)C=C1CCC1C2CC[C@]2(C)/C(=C/c3ccccn3)CCC12 (some centres unmarked),human Fibroblast,"cell growth or viability, resazurin",,72 h,> 50
CN1CCCNC(=O)c2cccc(c2)C(=O)NCCCN(C)CCCNc2cccc3c2C(=O)c2cccc(c2C3=O)NCCC1,mouse bone marrow cells,"cell proliferation, CCK-8",,48 h,6.3
COc1ccc2cc3[n+](cc2c1OCc1cn(Cc2ccc(OC(F)(F)F)cc2)nn1)CCc1cc2c(cc1-3)OCO2,SMMC-7721,"cell growth or viability, MTT",,,25
C#CCN(CC(=O)O[C@H]1[C@H](C)O[C@@H](O[C@H]2[C@H](N(C)C)[C@@H](O)[C@H](O[C@H]3[C@@H](CC=O)C[C@@H](C)[C@@H](O[C@H]4CC[C@H](N(C)C)[C@@H](C)O4)/C=C/C=C/C[C@@H](C)OC(=O)C[C@@H](O)[C@@H]3OC)O[C@@H]2C)C[C@@]1(C)O)Cc1ccc(C(F)(F)F)cc1,GES1,"cell growth or viability, CCK-8",,72 h,4.65
C=CC12COC(=O)C(=C)C1C1OC(=O)C(C)C1C(OC(=O)C(=C)CO)C2 (centres unmarked),JIMT-1,"cell growth or viability, MTT",,72 h,2.2

# A few entries again:
Compound,cell line,test,test system,setting,IC50 [µM]
C=C[CH2][Pd-]([Cl])[Cl].CC(C)c1cccc(C(C)C)c1-n1c[n+](-c2c(C(C)C)cccc2C(C)C)c2c1-c1cccc3cccc-2c13,NTERA2,"cell growth or viability, MTT",,72 h,0.4
CCCCCCCC(=O)O[C@H]1[C@H](C)O[C@@H](O[C@H]2[C@H](N(C)C)[C@@H](O)[C@H](O[C@H]3[C@@H](CC=O)C[C@@H](C)[C@@H](O[C@H]4CC[C@H](N(C)C)[C@@H](C)O4)/C=C/C=C/C[C@@H](C)OC(=O)C[C@@H](O)[C@@H]3OC)O[C@@H]2C)C[C@@]1(C)O,GES1,"cell growth or viability, CCK-8",,72 h,12.1
Cc1cc(C)c([N+]#[C][Pt-]([Cl])([Cl])=[C](Nc2ccc(CN[C](Nc3c(C(C)C)cccc3C(C)C)=[Au][Cl])cc2)Nc2c(C)cc(C)cc2C)c(C)c1,MRC5,cell growth or viability,,,> 100
CC/C(=C(\c1ccc(O)cc1)c1ccc(OCCN(C)CCOCCN(C)CCOc2ccc(/C(=C(/CC)c3ccccc3)c3ccc(O)cc3)cc2)cc1)c1ccccc1,MCF7 (ER-positive),cell growth,,96 h,0.11
